Published values gathered from unrelated publications.
Compare with care: the assays were run in different laboratories. ± gives the spread as reported.

SMILES	test	system	setting	scale	endpoint	result
COc1cc2c(Oc3ccc4[nH]c(C)cc4c3F)ccnc2cc1OCC1(N)CC1	–	paediatric recurrent refractory sarcoma	10 mg	–	grade 1 or 2 blurred vision	0%
C[C@@H](NC(=O)N1C(=O)[C@H](Cc2ccnc(N)c2)[C@H]1C(=O)O)C1CCCCC1	–	healthy adult Chinese volunteers	continuous intravenous infusion, 0.6 mg/kg/h, 5-day infusion, CTCAE 5.0 grading	–	incidence of hypokalemia	0%
Cn1ncc(-c2nc(N[C@H]3CC[C@H](N)CC3)ncc2Cl)c1CC1CC1	phase I dose escalation	human patients	dose not given, grade 3 or higher TEAE	–	acute respiratory failure incidence	10%
CC(C)CC(=O)OC[C@H]1O[C@@](C#N)(c2ccc3c(N)ncnn23)[C@H](O)[C@@H]1O	–	dog plasma	0.9 to 90 µM	–	fraction bound	0.7
[O-][S+]1CCc2nc(N3CCC(c4ncc(Cl)cn4)CC3)nc(NC3(CO)CCC3)c21 (centres unmarked)	–	idiopathic pulmonary fibrosis patients	18 mg twice daily	–	Constipation adverse events	10%
O=C(O)CCS(=O)(=O)O	–	human, plasma	oral, 265 mg twice daily, pre-dose, steady state week 65	–	Cmin	307 ng/mL
O=C1OC[C@H]2OC(O)[C@H](O)[C@@H](O)[C@@H]2OC(=O)c2cc(O)c(O)c(O)c2-c2c(O)c(O)c3oc(=O)c4c(c(O)c(O)c5oc(=O)c2c3c54)-c2c1cc(O)c(O)c2O (mixture of isomers)	subacute oral toxicity	BALB/c mice	oral, 1000 mg/kg/day, 28 days	–	spleen weight	0.08 g
Cn1cncc1-c1c(F)cncc1NC(=O)c1c(N)nn2cc(F)cnc12	–	human patients	oral, 270 mg once daily	–	grade ≥3 neutrophil decrease incidence	25%
O=C(O)CCCOc1ccc(F)cc1-c1cc(-c2ccccc2C(F)(F)F)n(-c2ccccc2)n1	measured: AST	Crl:CD(SD) rats, male, serum	iv, 25 µg/kg, 14 days	–	serum enzyme activity	79.9 ± 5.5 U/L
CCS(=O)(=O)Nc1ccc(Oc2ccc(F)cc2F)c(-c2cn(C)c(=O)c3[nH]ccc23)c1	serious respiratory failure	human, relapsed/refractory AML	oral, dose not given	–	treatment-emergent adverse events	5%
CC(=O)c1c(C)c2cnc(Nc3ccc(C4CCN(CCS(C)(=O)=O)CC4)cn3)nc2n(C2CCCC2)c1=O	–	human, dose-escalation trial, plasma	oral, 150 mg twice daily, day 21, multiple doses	–	AUC(0-t)	6050 ng·h/mL
O=C(Nc1ccccc1)C1CCN(C(=O)Oc2cccnc2)CC1	adverse event reporting	healthy women	oral, 60 mg, 7 days	–	subjects with chest discomfort	0%
CCCCCOc1ccc(-c2ccc(-c3ccc(C(=O)N[C@H]4C[C@@H](O)[C@@H](OCC[N+](C)(C)C)NC(=O)[C@@H]5[C@@H](O)[C@@H](C)CN5C(=O)[C@H]([C@@H](C)O)NC(=O)[C@H]([C@H](O)[C@@H](O)c5ccc(O)cc5)NC(=O)[C@@H]5C[C@@H](O)CN5C(=O)[C@H]([C@@H](C)O)NC4=O)cc3)cc2)cc1	–	adult ICU patients, mITT, serum	dose not given, EOT	–	alanine aminotransferase	18 U/L
N[C@@H](Cc1ccc(O)c(O)c1)C(=O)O	–	human, plasma	oral, dose not given, carbidopa/levodopa every 3 h, with: opicapone	reference: after over before opicapone	Ctrough ratio	1.95
O=S(=O)(Nc1ccccc1)c1ccc(NC(=S)Nc2ccccc2)cc1	measured: AST	female mouse, blood	oral, 80 mg/kg daily, 14 days	–	serum enzyme activity	531 U/L
O=C(Nc1ccc2c(c1)B(O)OC2)c1cccc(OCc2ccccc2)c1	PAMPA	pre-coated trilayer membrane	200 µM, 5 h, pH 7.4, donor plate, PBS	–	donor concentration	166 ± 25.1 µM
Cn1cc(-c2nc(N[C@@H]3CCCC[C@@H]3N)c(F)c3c2C(=O)NC3)cn1	measured: Mouth haemorrhage	patients with relapsed or refractory AML	oral, 100 mg once daily	–	hemorrhagic adverse events	14%
CN1CCN(S(=O)(=O)c2cc([N+](=O)[O-])ccc2N(CCOS(C)(=O)=O)CCOS(C)(=O)=O)CC1	–	NSG mice female, plasma	intraperitoneal, 5 mg/kg, 0.75 h	–	concentration	80 nM

SMILES	test	system	setting	scale	endpoint	result
CC(C)[C@@H]1NC(=O)CNC(=O)[C@H](CC(N)=O)NC(=O)[C@H](CCCNC(=N)N)NC(=O)[C@H](Cc2ccc(O)cc2)NC(=O)[C@H](C(C)C)NC(=O)[C@@H](NC(=O)[C@@H](NC(=O)[C@H](CC(N)=O)NC(=O)[C@H](Cc2c[nH]c3ccccc23)NC(=O)[C@H](C)NC(=O)[C@H](Cc2ccccc2)NC(=O)CN)C(C)C)CSSC[C@@H](C(=O)N[C@@H](Cc2cnc[nH]2)C(=O)N[C@@H](CCCNC(=N)N)C(=O)N[C@@H](CCCNC(=N)N)C(=O)N[C@@H](C)C(=O)N[C@@H](CC(N)=O)C(N)=O)NC(=O)[C@H](C(C)C)NC(=O)[C@H](CCCNC(=N)N)NC1=O	–	ICR mice, blood	intraperitoneal, 10 mg/kg, day 5	–	basophils	1.58 ± 0.14%
CO[C@H]1C[C@@H]2CC[C@@H](C)[C@@](O)(O2)C(=O)C(=O)N2CCCC[C@H]2C(=O)O[C@H]([C@H](C)C[C@@H]2CC[C@@H](OC(=O)NCCOCCOCCOCCOCCOCCOCCOCCOCCC(=O)N3CCc4cc(Cn5nc(-c6ccc7oc(N)nc7c6)c6c(N)ncnc65)ccc4C3)[C@H](OC)C2)C[C@@H](O)[C@H](C)/C=C(\C)[C@@H](O)[C@@H](OC)C(=O)[C@H](C)C[C@H](C)/C=C/C=C/C=C/1C	–	patients with advanced solid tumours	intravenous, dose not given, grade ≥3	–	incidence of Dysgeusia TEAE	0%
Nc1nc2cc(-c3ccc4ncc(C(=O)N5CCOCC5)n4c3)ccc2o1	measured: Constipation	advanced solid tumour patients	dose not given, all grades, all doses	–	patients with adverse event	35%
C[C@H]1COCCN1c1nc(NCc2cccnc2C(F)(F)F)c2cccnc2n1	–	BALB/c mouse	oral, 10 mg/kg	–	oral bioavailability	84%
O=S(=O)([O-])C(F)(F)C(F)(F)C(F)(F)C(F)(F)C(F)(F)C(F)(F)C(F)(F)C(F)(F)F.[K+]	–	male C57BL/6J mice, EtOH-fed, plasma	dose not given	reference: efavirenz and pair-fed	ALT level	increased
O=C1Nc2cc3[nH]nc(-c4ccncc4)c3cc2CN1Cc1ccccc1	CTCAE v4.03	advanced solid tumour patients	intravenous, 7.2 mg/kg, schedules 1/2	–	patients with abdominal pain	40%
CC[C@H](C)[C@H](NC(=O)[C@H](CCCCN)NC(=O)[C@H](CC(=O)O)NC(=O)[C@H](CC(C)C)NC(=O)[C@@H](NC(=O)[C@H](CC(N)=O)NC(=O)[C@H](CC(C)C)NC(=O)[C@@H](NC(=O)[C@H](Cc1ccccc1)NC(=O)[C@H](CCCCN)NC(=O)[C@H](CCCCN)NC(=O)CNC(=O)[C@H](C)NC(=O)[C@H](CC(N)=O)NC(=O)[C@H](CCCCN)NC(=O)[C@H](Cc1ccccc1)NC(=O)[C@H](CC(N)=O)NC(=O)[C@H](CCC(=O)O)NC(=O)[C@H](Cc1c[nH]c2ccccc12)NC(=O)[C@H](CC(C)C)NC(=O)[C@@H](N)CO)[C@@H](C)CC)[C@@H](C)CC)C(=O)N[C@@H](CCCNC(=N)N)C(N)=O	–	horse erythrocytes	2 h, 37 °C	reference: Triton X-100	HC50	> 128 µM
CCc1nc(C(N)=O)c(Nc2ccc(N3CCC(N4CCN(C)CC4)CC3)c(OC)c2)nc1NC1CCOCC1	–	human, plasma	oral, 450 mg once daily, cycle 1 day 15	–	Cmin	1170 ng/mL
COc1ncccc1-c1cnn2ccc(N3CCN(C(=O)OC(C)C)CC3)nc12	–	rat, thoracic spinal cord	oral, 30 mg/kg, 1.5 h, with: yohimbine pretreatment	–	concentration	5600 nM
N[C@@H]1c2ccccc2OC12CCN(c1cnc3c(N4CCCc5ncccc54)n[nH]c3n1)CC2	–	advanced metastatic solid tumour patients	oral, 150 mg once daily	–	TEAE leading to withdrawal	50%
CC(C)[C@@H]1CC[C@@H](C)C[C@@H]1O	acute oral toxicity OECD	Swiss albino mice, serum	oral, 300 mg/kg	–	blood urea nitrogen	23.7 ± 3.01 mg/dL
CC[C@H](C)[C@H](NC(=O)[C@H](Cc1ccccc1)NC(=O)[C@H](CCC(=O)O)NC(=O)[C@H](CCCNC(=N)N)NC(=O)[C@H](C)NC(=O)[C@H](C)NC(=O)[C@H](CCC(N)=O)NC(=O)[C@H](CCC(=O)O)NC(=O)[C@H](CCC(=O)O)NC(=O)[C@H](CC(C)C)NC(=O)[C@H](Cc1ccc(O)cc1)NC(=O)[C@H](CO)NC(=O)[C@H](CO)NC(=O)[C@@H](NC(=O)[C@H](CC(=O)O)NC(=O)[C@H](CO)NC(=O)[C@@H](NC(=O)[C@H](Cc1ccccc1)NC(=O)[C@@H](NC(=O)CNC(=O)[C@H](CCC(=O)O)NC(=O)[C@H](C)NC(=O)CCc1cnc[nH]1)[C@@H](C)O)[C@@H](C)O)C(C)C)C(=O)N[C@@H](C)C(=O)N[C@@H](Cc1c[nH]c2ccccc12)C(=O)N[C@@H](CC(C)C)C(=O)N[C@H](C(=O)N[C@@H](CCCNC(=N)N)C(=O)NCC(=O)N[C@@H](CCCNC(=N)N)C(=O)N[C@@H](CCCCNC(=O)COCCOCCNC(=O)COCCOCCNC(=O)CC[C@H](NC(=O)CCCCCCCCCCCCCCCCC(=O)O)C(=O)O)C(=O)NCC(=O)NCC(=O)N[C@@H](CO)C(=O)N[C@@H](CCSC)C(=O)N[C@H](C(=O)N[C@@H](CCCCNc1c(NCCCCCN(O)C(=O)CCC(=O)NCCCCCN(O)C(=O)CCC(=O)NCCCCCN(O)C(C)=O)c(=O)c1=O)C(=O)O)C(C)C)C(C)C [zirconium-89 labelled]	ex vivo gamma counting	male Sprague-Dawley rats, brain	intravenous, 1 nmol, 24 h, mean of 3 animals	–	tissue uptake	0.009 %ID/g
COc1ccc2nc3cc(Cl)ccc3c(Nc3cc(CN4CCCC4)c(O)c(CN4CCCC4)c3)c2n1	–	mouse, blood	intraperitoneal, 14 mg/kg	–	urea level	2.2 µmol/L
[2H]C([2H])([18F])[C@]([2H])(N)C(=O)O	PET	athymic nude mice, U-87 MG, muscle	dose not given, 60 min post-injection	–	tissue uptake	1.36 ± 0.25 %ID/cc
CCc1ccc(CC/C=C/c2ccc3c(c2)C(=O)CC3)cc1	–	Sprague-Dawley rat, female	oral, 30 mg/kg/day, 14 days	–	TG	0.31 mM
C[C@]1(CO)Cc2ncn(-c3ccc(C#N)c(Cl)c3)c2C(=O)O1	–	human, plasma	3 mg, first dose fasted	–	Cmax	125 nM
Clc1ccc(-c2ccccc2)cc1	–	Sprague-Dawley rats, female, serum	inhalation, 23 µg/rat, 0 h after exposure	–	albumin	3 ± 0.6 g/dL
